Measured values from different studies.
Every numbered part comes from another study and shows a few of its results, in no order.

Series 1
Target: Histone acetyltransferase KAT6A, winged helix 1, GST fusion (KAT6A, Homo sapiens, UniProt Q92794, residues 1-85)
Method: protein binding microarray
Form: double-stranded DNA, one strand shown
Medium: in vitro
Tested at: not given
Notes: 8-mer, flanks averaged, mean of 2 arrays, mostly near background
Reference: not given
Reading: higher = stronger binding
Construct (chain): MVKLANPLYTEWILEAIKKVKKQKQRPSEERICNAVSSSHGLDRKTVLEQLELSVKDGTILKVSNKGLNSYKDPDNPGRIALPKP
For `TACACCTA`, the E-score was -0.147.
The E-score of `CATCACCC` is reported as 0.0553.
The E-score of `AAACAACC` is reported as -0.169.
`AAATCCAG` has an E-score of -0.348.
With `GAGTAAGA` the E-score was -0.106.
The E-score of `CACAGCGG` is reported as 0.181.
With `ACCTACCT` the E-score was -0.0655.
For `AGATATCA`, the E-score was -0.201.
`ACCTTTCG` gave an E-score of -0.037.
`GATGACGA` gave an E-score of -0.0261.
With `CCGCAAGC` the E-score was 0.201.
The E-score of `TGGACAAA` is reported as -0.177.
`CAACGTGA` gave an E-score of -0.112.
`CGTCAAAG` gave an E-score of -0.15.
`GCAAATAA` gave an E-score of -0.188.
With `AGTACATA` the E-score was -0.083.
For `ATCAAAAT`, the E-score was -0.248.
The E-score of `CTCTGGCC` is reported as -0.136.
The E-score of `ACCCCCCA` is reported as -0.266.
`AATGTCTC` gave an E-score of 0.0556.
For `CCGTCGCG`, the E-score was 0.459.
`CGCACGGA` gave an E-score of 0.363.
For `AGTGTTGA`, the E-score was -0.0407.

Series 2
Target: Sal-like protein 4, full length isoform B (SALL4, Homo sapiens, UniProt Q9UJQ4-2, residues 1-616)
Method: universal PBM
Form: double-stranded DNA, one strand shown
Medium: in vitro
Tested at: not given
Notes: 8-mer, flanks averaged, mean of replicates
Reading: higher = stronger binding
The E-score of `ACACTCGT` is reported as 0.0551.
For `CTCTCGGC`, the E-score was -0.245.
The E-score of `CCATACGC` is reported as 0.0428.
With `GCAAGTTA` the E-score was 0.0546.
For `AGAGAGCG`, the E-score was -0.0609.
`CGGTGGTA` gave an E-score of -0.169.
With `CAACGGCG` the E-score was -0.288.
For `CTGCACGA`, the E-score was -0.128.
`AGTATGCG` gave an E-score of -0.0529.
With `CCCCTCTA` the E-score was -0.214.
With `GATAGCTA` the E-score was 0.047.
The E-score of `AATACGGC` is reported as -0.0363.
`TGGGACCA` has an E-score of -0.157.
For `ACATCAGC`, the E-score was -0.0529.
For `AGTCCCAA`, the E-score was -0.112.
With `ACCGTACA` the E-score was 0.1.
`AACTTGCT` gave an E-score of -0.0417.
The E-score of `CAAGTACA` is reported as 0.0974.
The E-score of `CGTAGTAA` is reported as 0.127.
`CGCCCAAA` has an E-score of -0.00626.
With `AATTAGAA` the E-score was 0.206.
`ATTTGACA` has an E-score of 0.244.
The E-score of `CGTTCAAG` is reported as -0.0666.
`AGATCCGG` gave an E-score of -0.187.
`CAAGAACC` has an E-score of -0.0459.

Series 3
Target: RING finger protein unkempt homolog, zinc fingers 1-6, GST-SBP tag (UNK, Homo sapiens, UniProt Q9C0B0, residues 30-357)
Method: RNA Bind-n-Seq
Form: RNA
Medium: in vitro
Tested at: not given
Notes: RNA with constant flanks, ends assumed
Reference: input RNA pool
Reading: higher = stronger binding
Constant ends, left off below: GGGAGUUCUACAGUCCGACGAUC … CAACAGAGGAUUGAGCAUCA
Construct (chain): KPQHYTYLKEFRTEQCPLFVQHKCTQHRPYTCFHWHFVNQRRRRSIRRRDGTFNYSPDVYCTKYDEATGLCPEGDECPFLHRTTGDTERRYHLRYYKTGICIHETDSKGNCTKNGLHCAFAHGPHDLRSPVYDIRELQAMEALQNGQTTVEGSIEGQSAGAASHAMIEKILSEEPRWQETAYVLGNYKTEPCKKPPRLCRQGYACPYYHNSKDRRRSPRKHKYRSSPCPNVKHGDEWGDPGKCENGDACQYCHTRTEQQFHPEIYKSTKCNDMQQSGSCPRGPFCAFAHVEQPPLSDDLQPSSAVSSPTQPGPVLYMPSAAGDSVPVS
`CAUGAAGGAUGCCAAGAAGUUUAAGGAAUAUGGGAGAAAUAGUGUGGAAAUUAAGAAGAAACCCGGUCUGAUAUUCAAAUGGACAAACUGCCAGUUUUGUUUCCUUUCACUGGCCACAGU` has a bound/input enrichment of 0.342 ratio.
For `GAAAUGCUGACAAGAUGUGGCAUUGGUAAGUUGCUACUCUUUGAUUAUGACAAGGUGGAACCCGCCAAUAUGAAUAGACUUUUCUUCCAACCUCAUCAAGCAGGAUUAAGUAAAGUUCAA`, the bound/input enrichment was 0.155 ratio.
The bound/input enrichment of `CCGCCCGGGUCGUGGAGCCAGGAGCGACGUCACCGCCAUGGCGGGCAUCAAAGCUUUAAUCCGUUUGUCCUUUGGAGGAGCGAUCGGGCUGAUGUUCCUGAUGCUUGGAUGUGCCCUUCC` is reported as 0.174 ratio.
With `CCAGGCUGGAGUCAUUUACAAGUUUCUCCACGUAGAUUGUAGUCAGGUUUCUCCCAGACCUCCGGCGUUUGUAUUUUUUUUUUUAAUUUUAAUUUCACUGUUACCCUUGACUAUUGUCCU` the bound/input enrichment was 47.8 ratio.
For `GUUCAGUUGGGGGGUAGACUGCUCAGUGAUAGUGCUUGCCAAGCUCUACCCUUAACUCCUCCGGUUGAACUGUGGCCUUUCCCACAAUCUCCCUCACCCCAAACUAAAACCAAAUCCAAG`, the bound/input enrichment was 0.402 ratio.
The bound/input enrichment of `GCACCCAGGUCCUAUAGAAUAGCACCCAGGCCAUAUAGGUUAGCACCUAGACCCCUGAUGUCCGCAUCUAGACGUUCUAUGAUGAUGUCCUAUGCUGCAGAACGUUCCAUGAUGUCAUCU` is reported as 0.332 ratio.
`AGAGUGAAAAUUCUUCGAGAUUAUGCUGGCCUUAUACUUUUCCUAGAAGAGGAUCACUACUCCGCCCCAGACUUUUACCAUGUCUUCAAAAAGAUGUGGAAACUGAAGCAGCAAGAGUGC` gave a bound/input enrichment of 0.161 ratio.
For `AGAAAAAUACAUCUUUCUGAAUUAAUGCUGGAGAAAUGCCCUUUUCCUGCUGGCUCGGAUUCCGCACAAAAGUGGCAUUUGAUUAAACAGCAUACCGCCCCUGUGAGCCCACACUCAACA`, the bound/input enrichment was 0.0731 ratio.
`AUGGUUGUGAAAGGUGUUUGGGGUCUAAAACAUGAUUUUUCCUGGCACAUAUUUCAAAGCACCGACUUUGUUACCUGCUGCUUCUUGUCUAAUUUACAGGGAUAUUUAAUUUUGUAAGGU` gave a bound/input enrichment of 0.284 ratio.
`CCUGCAGUAGGAAGUUUUGGGGUUUUUUGUUUUUGUUUGGUUUUGGUUUUGUUUUUCUUAAACCGUCUCUUAUGGGUAGCUGGAUUCUCUGCCAUUUGUAAUUUUUCCUCUGAUUCCAAU` has a bound/input enrichment of 1.41 ratio.
`UUCCUUACCCGGCCUAAGGUCCCUGUCUUGCAGCUGGAUAGUGGCAACUACCUCUUCUCUGCCCGUGCAAUCUGCCGAUAUUUUUUUCUGUUAUGUGGCUGGGAACAAGAUGAUCUCACC` gave a bound/input enrichment of 0.258 ratio.

Series 4
Target: RNA binding protein fox-1 homolog 2, RRM domain, GST-SBP tag (RBFOX2, Homo sapiens, UniProt O43251-10, residues 100-194)
Method: RNA Bind-n-Seq
Form: RNA
Medium: in vitro
Tested at: 365 nM
Notes: natural RNA segment, single round, ends assumed
Reference: no-protein control
Reading: higher = stronger binding
Constant ends, left off below: GGGAGUUCUACAGUCCGACGAUC … UGGAAUUCUCGGGUGCCAA
Target sequence (chain): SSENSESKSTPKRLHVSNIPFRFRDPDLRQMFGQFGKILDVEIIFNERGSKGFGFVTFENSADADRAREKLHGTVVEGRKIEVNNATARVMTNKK
Under “RBNS enrichment (R)”, `UUGUAUAUCCCCCAAAUUAAAAUUUACUUCAAAGGUGUUAAAGAUUUCAUGUCCUAUAUUAAAGUACAAAUAGGCUUAAAUUACUGGAUAUUUAAUGUAGUUUCCCAUCC` is recorded as 0.594.
`AAGUUUGAAGACCAAGAAAUCCUGUAUUUCCUACUCUAGGUGAGACAAUGUGAGAGGACAAAGUAUGAAGAGUCUGGUUUUUACUAGAACCUGACAGAGAAGGGAAGGUU` — result for “RBNS enrichment (R)”: 0.727.
`AUCUUUCUCCCCGAAACAAUGUUGUUUUGUUUUGUUUUUUUUCCUUAAUUUGCACGAAAACAAAAAUUCCAUAUCAAUGUGCCUUGCCCUGGAUAGCGAUUAUUUGUGGA`: “RBNS enrichment (R)” 10.3.
For `UGCAUAUUACACCAAACGUUUGAGGGAAAAAUCCUCAUUCGUAAAGGAUUUUGGAUGUAUAAUCUAAAACUCAACAAUAAAGAAAUAAUAUUCCAAGUCUCUGGUUUCCU`, “RBNS enrichment (R)” read 0.457.
Under “RBNS enrichment (R)”, `AGGACUCCAGUGUGACCCUGCACUGAGAGGACCAAAGCGUCAUUGCAGUCUUCUCUCCACCCUGUACCCCGGAGUCCUGAUUGGAUGUCUGCAGAGGCAGAUGGGGCUCC` is recorded as 0.382.
For `UUCUUGGUUGUGUCACCCCCAAAGAGUCAGAACUGUACACAGUUCAAAACUUAGUGACUGUGGGUCACAUUCCCACUGUUGAAACUGCUAAAUUGUGACCUGGGGAAGGA`, “RBNS enrichment (R)” read 0.507.
`GUGAGCUGUCUUCAUUUCUCUGUGCUAUGUCCAGAUGUGGGGUUGCUGCAGCCGGGGUUCUAUGGCAAGUGCCAGUUGCAGGGCUAACCUUGUGCAACGUUCCCCAACAC`: “RBNS enrichment (R)” 1.36.
Under “RBNS enrichment (R)”, `CAGGCCUGGCCGUGAGCGGGGGCUGCCUGCACGCUCCCCUAGCCUACUCUUGUGUUUAGGGGAUGGUGGGAACAUAUCCCAGUGCCCUUGCCUCAUAAUAGAUGUGGUGA` is recorded as 0.399.
`CCACGGCUGGACAGCUGUUCUCUCCUCCUAUCCCACCGCUUCCCCUAAUAAAGGGACUGUUCUUUUGUUGCCUUGCUGUUUUUCCUUUACUAGUGGGCAGCUGCCGGGGG` — result for “RBNS enrichment (R)”: 2.52.
`UUCAGGACGCCUCGUGUUUUUGUUUUCUGCUGGAUCUGUGUGGUGGUGUUAGCGUCGUUUGCCUAGCAUCUGAUUUUCUGAUGUAACCAGGGUUUCACGCUGUUCUUUUC` — result for “RBNS enrichment (R)”: 0.576.
`GGUGUCUGUGUUUCUGUUUGCACUGUUUCUGUGACAGCCACCCAGGCAAAAUCAUGAAAUACACUCGGUUCUGUAAAUUGCUUCUUUAAAUGUCCCGUAGAUUCUUCCUG` — result for “RBNS enrichment (R)”: 0.356.
`UUGAUUCAUGCCAUUUGAUAAACUUCUGCCUUGUAGUCAUUGUUUGAUGGGACCAACUUGUAAAGUAUGAGCCUUAAAUAAAUCUCCAUGCUGAAAAAUGUGUUCUAAUG`: “RBNS enrichment (R)” 0.422.
